Experimental data collected from several papers.
Compare with care: the assays were run in different laboratories.
Cell line: Ramos

`CCOc1cncc(-c2ccc(NC(=O)C3(c4ccnc(NS(=O)(=O)C5CC5)n4)CCOCC3)nc2)n1` gave an IC50 of 28 nM (cell growth or viability, ATP luminescence; 72 h).
`NC(=O)c1ccc(-c2ccccc2Cl)c2c3c([nH]c12)CC[C@H](N)C3` has an IC50 of 20 nM (cell growth or viability).
`CC(C)=CC1OC(C)(C)C2C=C3C(=O)C(Cl)=CC(O)C3C3C(O)C4OC4C(=O)C132` (stereo not drawn) gave an IC50 of 2020 nM (cell growth or viability, MTS).
The IC50 of `C[C@H]1CN(C2COC2)CCN1c1ccc(Nc2cc(-c3ccnc(N4CCn5c(cc6c5CC(C)(C)C6)C4=O)c3CO)cn(C)c2=O)nc1` is reported as 111 nM (IP1 production, HTRF; 4 h, with: anti-IgM).
`CNS(=O)(=O)Nc1nccc(Cc2c(C)c3ccc(Oc4ncccc4F)cc3oc2=O)c1F` gave an IC50 of greater than 1000 nM (cell viability; 7 days).
For `C=CC(=O)N1CCC[C@@H](c2ccc(C(N)=O)c3[nH]ccc23)C1`, the IC50 was greater than 1000 nM (IP1 production, HTRF; 4 h, with: anti-IgM).
For `CCN(C(=O)c1cc(F)ccc1Oc1nncnc1N1CCC2(C1)CN([C@H](CCCN(C)CCOC)C(C)C)C2)C(C)C`, the GI50 was greater than 10000 nM (cell growth or viability; 7 days).
The IC50 of `C=CC(=O)N1CCC[C@@H](n2nc(-c3ccc(Oc4ccccc4)cc3)c3c(N)ncnc32)C1` is reported as 1.72 nM (IP1 production, HTRF; 4 h, with: anti-IgM).
`CN1CCC(N[C@H]2CCc3[nH]c4c(C(N)=O)ccc(-c5ccccc5Cl)c4c3C2)CC1` gave an IC50 of 351 nM (cell growth or viability).

A few entries again:
The IC50 of `C[C@H]1CN(C2COC2)CCN1c1ccc(Nc2cc(-c3ccnc(N4CCn5c(cc6c5CC(C)(C)C6)C4=O)c3CO)cn(C)c2=O)nc1` is reported as 111 nM (IP1 production, HTRF; 4 h, with: anti-IgM).
